# Assay results collected from several papers.
# Numbered parts are unrelated; each lists some results of a single study.

# Series 1
# Target: Sal-like protein 4, full length isoform B (SALL4, Homo sapiens, UniProt Q9UJQ4-2, residues 1-616)
# Method: universal PBM
# Molecule type: double-stranded DNA, one strand shown
# Matrix: in vitro
# Concentration: not given
# Setting: 8-mer, flanks averaged, mean of replicates
# Reading: higher = stronger binding
Oligonucleotide,E-score
GTTTATTA,0.396
CTACTGAC,-0.0508
CTCGACAA,0.124
GTAGTGTA,0.0598
TAGTTACA,0.069
ACGTGACC,-0.191
CACCACTC,-0.0746
CGCTCCTC,-0.317
AGGAGGAG,-0.168
AGTTTCCC,-0.112
CTGCTCTA,0.114
ACGGTGTA,0.0192
AATCTCCG,-0.191
ACTAGGAG,-0.162
AGCATATG,0.123
CTTGCCCC,-0.324
AGGCGCTA,-0.0303

# Series 2
# Target: Fragile X messenger ribonucleoprotein 1, C-terminal low-complexity region (Fmr1, Mus musculus, UniProt P35922)
# Method: RNA Bind-n-Seq
# Molecule type: RNA
# Matrix: in vitro
# Concentration: 200 nM
# Setting: whole 134-nt RNA, ends assumed
# With: 150 mM LiCl
# Baseline: input library
# Reading: higher = stronger binding
# Library: 7-deaza-guanosine replaces G
# All sequences stand within: GGGAGUUCUACAGUCCGACGAUC … UGGAAUUCUCGGGUGUCAAGG
Oligonucleotide,log2 enrichment
ACCAUGCAGGUGGGCAUCUUUGGGAAGUGGGGCAAGGGGGGGAUAGGGAGGGGGGUAACACUUUGGGAACAGGUGGUCCCAAAACGUUUC,1.12
GCAGGAAGUAAAAACAAAUGGAAAUGCUUCGGAUAGUGGCAGGGGUGGGGGUUGCUAAGGAAAGGGUGGGAUGGUAGUGGGUAAAGAGUU,1.57
GCAGGAAGUAAAAACAAAUGGAAAUGCUUCGGAUAGUGGCAGGGGUGGCGGUUGCUAAGGAAAGGGUGGGAUGGGAGUGGGUAAAGAGUU,1.27
CCUGUGCUACACAUCGUAUGUACCGAAUCGGAAAAAAAGGGAAAAAAAGGAAAAAAAGGGAAAGUAUUAUGUUACGCCGUUCGGAUCUGC,-0.685
CCUGUGCUACACAUCGUAUGUACCGAAUCGGGGAAAAAAAGGAAAAAAAGGGAAAAAAAGGAAAGUAUUAUGUUACGCCGUUCGGAUCUG,0.053
GAUCUCCGGGCUCAGUUGCAGAUUCUGGCCAACAUGGACAGCCAGCUAAAAGAGCUACAGAGUCAGCAUACCCAUUGUGCCCAGGACCUG,-0.813

# Series 3
# Target: Histone acetyltransferase KAT6A, winged helix 2, GST fusion (KAT6A, Homo sapiens, UniProt Q92794, residues 85-181)
# Method: protein binding microarray
# Molecule type: double-stranded DNA, one strand shown
# Matrix: in vitro
# Concentration: not given
# Setting: 8-mer, flanks averaged, mean of 2 arrays, mostly near background
# Baseline: not given
# Reading: higher = stronger binding
# Residues (chain): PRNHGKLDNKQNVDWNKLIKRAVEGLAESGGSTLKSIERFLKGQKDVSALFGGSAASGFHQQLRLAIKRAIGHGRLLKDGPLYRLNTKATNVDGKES
Oligonucleotide,E-score
GATAGATA,-0.0165
ATGCGGGC,0.0596
CAGGATAC,-0.131
AACCAGGC,0.111
GGTGGTAA,0.0847
GACCTCAC,-0.0801
ATACAAAT,0.0141
CCCGTTAA,-0.126
ATGCATAG,-0.0519
ATAAGATA,0.122
CACGGCAG,0.159
ACACAAGA,-0.0296
TAGCACGA,-0.0111
GTTTCGCA,-0.18

# Series 4
# Target: RNA binding protein fox-1 homolog 2, RRM domain, GST-SBP tag (RBFOX2, Homo sapiens, UniProt O43251-10, residues 100-194)
# Method: RNA Bind-n-Seq
# Molecule type: RNA
# Matrix: in vitro
# Concentration: 365 nM
# Setting: natural RNA segment, single round, ends assumed
# Baseline: no-protein control
# Reading: higher = stronger binding
# All sequences stand within: GGGAGUUCUACAGUCCGACGAUC … UGGAAUUCUCGGGUGCCAA
Oligonucleotide,RBNS enrichment (R)
UGUGCCACCCUGGGCUCUGUGGGCUGCACUCUGUGCCCAUGGGCACUGCUGGGUGGCCCAUCCCCCCUCACCAGGGGCAGGCACAGCACAGGGAUCCGACUUGAAUUUUC,0.413
UUGCCCCUCUGAGAAGCAUGAAUGAGCUCACAUUAGUACUGAGAAGUUUGAAGACCAAGAAAUCCUGUAUUUCCUACUCUAGGUGAGACAAUGUGAGAGGACAAAGUAUG,14.6
GAUAACAUUUUGUAACAUUGUGCUGCCUUAGAGUUUGUACUGUGAGUUCUAUCAGUAUUUAUGUUGAAAUUUCUAACAUGGAUUCUAGUCUCUAUUCUGUUAAUUUAAUU,0.738
GAUGAACCAGAUCCAGUCUGUAGAGGUUUGACAUUCGCCUGCCUCGGUUCUCCUCUUCCUCCACGCCGCCCCCUGAGCCCCCCUACAUCGGUCCCCCUGCUGCUCUGUCC,0.704
AAUAGAGAACUUCUAGUGUAUGGAUUUAAAGAUUUCUCUUUUUCAUUCAUAUACCAUUUUAUGAGUUCUGUAUAAUUUUUUGUGGUUUUUGUUUUGUUGAGUUAAAGUAU,24
CCCCAGUAAGCCACUGCCACACGUCUGACCCUCUCCACCCCAUAGUGACCGGCUGCUUUUCCCUAAGCCAAGGGCCUCUUGCGGUCCCUUCUUACUCACACACAAAAUGU,0.415
UCUUAGAUGACUGCUUAUUUAUGUGUAACAUAAAUCCCACAUAUUCUAAUGACAACUUCUUUAAUCCUUCCGGGUCAUAUAUUAUAUUUCCAUAGUAUCACAUACUAUUA,0.585
CCAGGCAGGGACAGGUUGCCUGUGGCCCCCUCAAUCUGAGGUGCACCCCUUGGGCUAUGGACCCCAUUCCCUUGCCAUCACCCCCGCCAGUGGGUCUGCUUCACUGUGGA,0.57

# Series 5
# Target: Phosphate system positive regulatory protein PHO4, full length, GST-tagged (PHO4, Saccharomyces cerevisiae, UniProt P07270, residues 1-312)
# Method: competition protein-binding microarray
# Molecule type: double-stranded DNA, one strand shown
# Matrix: in vitro
# Concentration: 2 µM
# Setting: whole 60-bp probe, lowest competitor level
# With: Cbf1 competitor, 0.05 µM
# Reading: higher = stronger binding
# All sequences stand within: … GTCTTGATTCGCTTGACGCTGCTG
# Residues (chain): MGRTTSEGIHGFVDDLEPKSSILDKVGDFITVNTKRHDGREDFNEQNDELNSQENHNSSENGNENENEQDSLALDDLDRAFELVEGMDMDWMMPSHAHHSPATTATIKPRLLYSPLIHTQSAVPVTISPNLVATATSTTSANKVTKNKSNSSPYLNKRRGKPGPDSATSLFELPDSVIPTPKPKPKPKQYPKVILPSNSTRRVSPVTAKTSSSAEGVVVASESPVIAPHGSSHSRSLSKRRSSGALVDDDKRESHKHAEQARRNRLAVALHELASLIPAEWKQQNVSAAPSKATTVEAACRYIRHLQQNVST
Oligonucleotide,fluorescence intensity [a.u.]
CGTCCTAGCGATTGATATGTGGGTGCCATGAGGAAG,6490
TTTGCAGTGTAATCTCACGTGCAAAAGACTGAGTAA,12900
CTTTCCCGATCTTGTCCGGTGGGTGTAGCACATTTG,4570
CTTTCCCGATCTTTTCACGTGACCTTAGCACATTTG,11800
CACTGTTCGCTTCGTCATGATCAATGGTGTTACTGA,4010
GATCCGTCTACGACTCCCGTGGTGAGCCAACCGTCG,5940
AAGTGGTTACAAATTCACGTGCTGTGATTGGAAACT,13600
AACGCCGTCCGTAACCATATGATTCACAATTTGATC,3800
CAGTTATGAGACTGTATCATGACAATACCTTATTTG,3540
TAAATGGTTCAAATTCACGTGGGTAATAATATGATT,16500
TGCGCAACAACTTGCCTGGTGGGTGTATGTCTAGAA,5760
TATTTTTTCACCATCAACGTGGTGATTCACTTATTC,14500
CAAAGAAACCAAAGGGTCGTGCTTTCAAGAGATTAT,9410

# For quick reference, copied from above (series 3):
Oligonucleotide,E-score
AACCAGGC,0.111
GGTGGTAA,0.0847
GACCTCAC,-0.0801
ATACAAAT,0.0141
CCCGTTAA,-0.126
